Assay results pooled from the literature.
Parts stem from different laboratories: compare values within a part only.

Set 1 — method: competition protein-binding microarray; molecule type: double-stranded DNA, one strand shown; medium: in vitro; tested at: 2 µM; added: Cbf1 competitor, 0.05 µM; reading: higher = stronger binding
Target: Phosphate system positive regulatory protein PHO4, full length, GST-tagged (PHO4, Saccharomyces cerevisiae, UniProt P07270, residues 1-312)
Notes: whole 60-bp probe, lowest competitor level
Construct (chain): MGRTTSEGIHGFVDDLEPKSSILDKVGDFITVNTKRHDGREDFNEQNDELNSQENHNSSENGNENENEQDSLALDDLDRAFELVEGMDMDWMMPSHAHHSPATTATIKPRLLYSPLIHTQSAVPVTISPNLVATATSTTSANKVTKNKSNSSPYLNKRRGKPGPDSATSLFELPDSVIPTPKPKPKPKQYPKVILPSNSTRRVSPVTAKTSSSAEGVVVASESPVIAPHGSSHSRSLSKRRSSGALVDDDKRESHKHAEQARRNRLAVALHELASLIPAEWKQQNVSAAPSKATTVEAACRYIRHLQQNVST
Strand	fluorescence intensity [a.u.]
AAATTACTAAGTTTTCACGTGTGCTACCCCGTATGAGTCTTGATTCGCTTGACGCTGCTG	13400
CGTCCTAGCGATTGACCCGTGGGTGCCATGAGGAAGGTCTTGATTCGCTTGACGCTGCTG	10600
TTCTTAATTTTTTTGCACGTTTTTCAGCTTCTGGTTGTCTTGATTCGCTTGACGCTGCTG	13700
CGGGGTTAAGTTTGTCACGTTACTTGCTTGCAGCAGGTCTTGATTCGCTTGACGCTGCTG	7840
CTTCTGTAAATTTTTCACGTGATGTGAAGCGCCCCGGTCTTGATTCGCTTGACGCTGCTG	11700
CATACCCAACCTTGAAATGTGGGTGAAGATATTTGTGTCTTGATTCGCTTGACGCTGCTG	5660
CTAACGAAGGTTTGTCACAAAACTTACAAGCCAAGTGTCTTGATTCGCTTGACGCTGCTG	2970
CTCAAACACCACATCTGCGTGATGGCCGCCCAAAAGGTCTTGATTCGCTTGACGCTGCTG	6460
CATACCCAACCTTGTCGTGTGGGTGAAGATATTTGTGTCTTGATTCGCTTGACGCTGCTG	5580
CTAACGAAGGTTTGTCACTGAACTTACAAGCCAAGTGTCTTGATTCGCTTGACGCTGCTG	3050
TAACCTTTAAGCCGTCACAAATAAATAGCCTTGTTGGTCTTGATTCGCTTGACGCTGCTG	3240
CTTTGAGCACCACTCCACGTGGGCGCAGGCGCAGCGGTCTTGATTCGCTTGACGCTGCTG	16600
CTTTCCCGATCTTGCCTTGTGGGTGTAGCACATTTGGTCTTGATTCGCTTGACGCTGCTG	5100
AAACCAATTGGTCGGCACGTTCTGGCAAATGCGTCCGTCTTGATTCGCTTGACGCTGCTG	13900
GAAACCTGAAACTGCCACGTGAAGACACCAGGGCTGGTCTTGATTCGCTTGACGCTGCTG	15100
CAACAAACAGTAGCTCGCGTGGCCGAATGGCAACGCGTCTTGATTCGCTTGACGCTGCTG	7530
AGATTAGTCTATTTGACCGTGCCGATTTTGCACTTTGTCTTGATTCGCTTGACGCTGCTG	6110

Set 2 — method: RNA Bind-n-Seq; molecule type: RNA; medium: in vitro; tested at: 365 nM; reference: no-protein control; reading: higher = stronger binding
Target: RNA binding protein fox-1 homolog 2, RRM domain, GST-SBP tag (RBFOX2, Homo sapiens, UniProt O43251-10, residues 100-194)
Notes: natural RNA segment, single round, ends assumed
Construct (chain): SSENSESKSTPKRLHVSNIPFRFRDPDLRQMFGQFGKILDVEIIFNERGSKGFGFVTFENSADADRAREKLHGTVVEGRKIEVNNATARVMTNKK
Strand	RBNS enrichment (R)
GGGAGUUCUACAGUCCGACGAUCUCUCCGGUGACACCUAUAAGCCUCCAUUGAGCUCAGAGAGGAUGCCUUAGGCUGGAUCCUGCUCCUCUGUGAGGAGUAAGGGUGCCUAAUAAAUACAUUUCUGCUUUAUUUGGAAUUCUCGGGUGCCAA	0.155
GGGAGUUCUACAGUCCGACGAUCAUUUUUGGUAAGGAAUUCAUUUCACAGGUAGUGUUUCAGACUCUGAAAGCCCUGACUUGGUUCUUGGCUUCUACUGUACUAGUUACUAGUUACUGGUACUGUUGCCAAGCUGGAAUUCUCGGGUGCCAA	0.258
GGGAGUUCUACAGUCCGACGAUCAAGUCCCAGUCACCUUCCUGGCCUCACUGUCCUCAGCUGUAACCUGGGCAUUUGAGAGGUACAGGCAGAAGAGAAGACAAUCAUGGUCUGAUUAGUUGAGUGACAGGAGUUGGAAUUCUCGGGUGCCAA	0.309
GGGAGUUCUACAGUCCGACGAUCCUCUUCCUUGUAGGGCCCUUUCCUUAUUCAUUUAGGUAGUGUGAACAUUAAGUAUAAAAUAAAUUAUGUUCUUAAUGCCUCUUAAACCACUUACAUUCAAAGGGGAACAGUGGAAUUCUCGGGUGCCAA	0.326
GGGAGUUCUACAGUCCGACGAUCUGUAUAAAGUCACAUGUACUGCCAUACUACUUCUUUGUAUAUAAAGAUGUUUAUAUCUUUGGAAGUUUUACAUAAAUCAAAGGAAGAAAGCACAUUUAAAAUGAGAAACUUGGAAUUCUCGGGUGCCAA	0.797
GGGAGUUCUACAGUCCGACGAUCCCUCUCCCCAGGGCCUGGCCCUACCUCCUGGUCUUGUAAUUACAGGAGCCAUUUCUGUAGGUAACUGGACCAAGAAUGAGAAAAAUAAUGAAUUCUUAGCUCCCUGAUUAUGGAAUUCUCGGGUGCCAA	0.42
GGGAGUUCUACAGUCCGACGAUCGCCUUGGCCACAGGAAGCUGCCGAGACUGGCCAUGUGGCUGGGCUAGGCUGUGCCCUCCCUCUCCCUCAGCGCUGGAAGUCGGGGUGGGGCAGGUUCUGUGGAAGAAGUUUGGAAUUCUCGGGUGCCAA	0.639
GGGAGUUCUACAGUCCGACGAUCUGGCAGGGACCAACCAGGCUGCCUGUGCCCGUCUGCUGCCUCCGAGACACCAGAGGUCUGCUGCAGAGCCCCACCAAGAACCAAGAUGAAGAAAGCCCCUGAGAGAUGCAUGGAAUUCUCGGGUGCCAA	22.5
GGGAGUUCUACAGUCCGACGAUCUGGAGACUGGCUGGCAUUCCUCCAGCACUCUGCAGACUUCUUCCUGGGCCCGAGGCUAUGGAGCCUUGGCUUUCACUUCUGUGACAAACACAUGCCAUUUCCCCAGCCUCUGGAAUUCUCGGGUGCCAA	0.346
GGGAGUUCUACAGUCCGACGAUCCCUUUGCAUCUCUGCUCUUCACUCCUGGGGGGCAGCUGAGCUCCCCGCGUGCUGUGUCACUGCUUUGUUCCAGACACAAACCAGCACGUCUAGGGCCCAGCCCCUCCCCCUGGAAUUCUCGGGUGCCAA	0.797
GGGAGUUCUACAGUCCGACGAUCCUUAAAGUUAAAAGAAAAUACAGAAUACCAGCAGAACUUGAUUAUUGUUUUCUGUCCAAACUUCUUAUGACUUUAGUUUUUCAUCAGUCAAUAAAAUUAAUUUACUCUUCUGGAAUUCUCGGGUGCCAA	0.638
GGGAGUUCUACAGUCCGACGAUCGCAGAAAGAAUAUGGGCUCUGCAAUGAGACAGACCUGGAGGGGACUCUCCCGUUGAGCACUAGCAGCUGGAGGAGUUGGGAGUUCAUGGCUAUCAUGGUUGUGUUAAUCGUGGAAUUCUCGGGUGCCAA	0.907

Set 3 — method: RNA Bind-n-Seq; molecule type: RNA; medium: in vitro; tested at: 1 µM; notes: whole 134-nt RNA, ends assumed; added: 150 mM KCl; reference: input library; reading: higher = stronger binding
Target: Ras GTPase-activating protein-binding protein 1, RRM domain (G3BP1, Homo sapiens, UniProt Q13283)
Sequence of UniProt Q13283 (whole entry, looked up): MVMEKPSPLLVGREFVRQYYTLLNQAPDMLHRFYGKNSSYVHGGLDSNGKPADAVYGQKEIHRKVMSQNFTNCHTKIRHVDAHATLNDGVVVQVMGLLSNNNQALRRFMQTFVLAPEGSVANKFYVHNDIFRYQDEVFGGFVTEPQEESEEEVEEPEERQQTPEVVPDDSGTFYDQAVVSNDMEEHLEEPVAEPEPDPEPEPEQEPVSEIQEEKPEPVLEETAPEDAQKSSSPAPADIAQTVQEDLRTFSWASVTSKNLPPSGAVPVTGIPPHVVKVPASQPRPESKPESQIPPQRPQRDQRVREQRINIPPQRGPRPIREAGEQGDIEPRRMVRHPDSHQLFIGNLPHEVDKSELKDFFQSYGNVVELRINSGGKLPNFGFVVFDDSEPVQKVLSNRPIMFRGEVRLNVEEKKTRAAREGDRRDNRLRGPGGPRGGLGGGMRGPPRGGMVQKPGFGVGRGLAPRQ
Strand	log2 enrichment
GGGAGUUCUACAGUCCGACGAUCUGAACAGCUCUGCGCUUUUUGUUACUGUGGGGAAAAAAGUUCCUUAGGACAAGGAGACUUAAAACAAUUCAGAAUAACGCCUGGAUUUAUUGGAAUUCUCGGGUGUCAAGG	-0.279
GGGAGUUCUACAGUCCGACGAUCCACAGACAACACGCACCCACACAGACACAGAGGGAAGGGGUUGGGAUGGGGACAGGGUGCACAGCAGGGCGGGGUAGGACCCUAGCCCCUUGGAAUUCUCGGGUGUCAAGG	-0.259
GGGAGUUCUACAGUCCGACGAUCAAGUCCUGUGCUACACAUCGUAUGUACCGAAUCGGUUUUUGGUUUGGUUUUUUUGGAAAGUAUUAUGUUACGCCGUUCGGAUCUGCACUUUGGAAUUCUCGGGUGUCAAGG	-0.357
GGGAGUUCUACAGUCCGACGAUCUCAAGUCCUGUGCUACACAUCGUAUGUACCGAAUCGGUGGAAAGGUUUUUUUGGAAAGUAUUAUGUUACGCCGUUCGGAUCUGCACUUCCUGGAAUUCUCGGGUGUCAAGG	-0.192
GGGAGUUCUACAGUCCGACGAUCAGUCCUGUGCUACACAUCGUAUGUACCGAAUCGGGGAAAAAAAGGGGUGGGGAGGGGAAAGUAUUAUGUUACGCCGUUCGGAUCUGCACUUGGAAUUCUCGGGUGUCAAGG	0.924
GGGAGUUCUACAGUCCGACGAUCUGUCAGGAUUAUGAAGAAGCUGUGCUCUUGCUGUUAGAAGGAGCUGCCUGGGAAGAAGCUUUGAGGCUGGUAAGAAUCUUGUAAAUCCUCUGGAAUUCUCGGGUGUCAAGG	-0.224
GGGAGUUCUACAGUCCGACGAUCGUCCUGUGCUACACAUCGUAUGUACCGAAUCGGGAAAAAGGGAAAGGGUUUUUUUGGGAAAGUAUUAUGUUACGCCGUUCGGAUCUGCACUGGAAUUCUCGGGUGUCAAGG	0.113
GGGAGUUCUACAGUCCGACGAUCAGUCCUGUGCUACACAUCGUAUGUACCGAAUCGGAAAAAGGGAAAAAGGGAAAAAGGGAAAGUAUUAUGUUACGCCGUUCGGAUCUGCACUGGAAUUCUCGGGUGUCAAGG	-0.0476
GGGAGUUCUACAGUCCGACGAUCCUCAAGUCCUGUGCUACACAUCGUAUGUACCGAAUCGGGGCCGGGCCGGCCGGGAAAGUAUUAUGUUACGCCGUUCGGAUCUGCACUUCCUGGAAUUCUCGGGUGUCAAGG	-0.546
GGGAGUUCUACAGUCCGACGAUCAAAAGACAACACGCACCCACACAGACACAGAGGGAAGGGGUUGGGAUGGGGACAGGGUGCACAGCAGGGCGGGGUAGGACCCCAGCCCCUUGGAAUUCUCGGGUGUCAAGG	0.0221

Set 4 — method: universal PBM; molecule type: double-stranded DNA, one strand shown; medium: in vitro; tested at: not given; reading: higher = stronger binding
Target: Sal-like protein 4, full length isoform B (SALL4, Homo sapiens, UniProt Q9UJQ4-2, residues 1-616)
Notes: 8-mer, flanks averaged, mean of replicates
Residues (chain): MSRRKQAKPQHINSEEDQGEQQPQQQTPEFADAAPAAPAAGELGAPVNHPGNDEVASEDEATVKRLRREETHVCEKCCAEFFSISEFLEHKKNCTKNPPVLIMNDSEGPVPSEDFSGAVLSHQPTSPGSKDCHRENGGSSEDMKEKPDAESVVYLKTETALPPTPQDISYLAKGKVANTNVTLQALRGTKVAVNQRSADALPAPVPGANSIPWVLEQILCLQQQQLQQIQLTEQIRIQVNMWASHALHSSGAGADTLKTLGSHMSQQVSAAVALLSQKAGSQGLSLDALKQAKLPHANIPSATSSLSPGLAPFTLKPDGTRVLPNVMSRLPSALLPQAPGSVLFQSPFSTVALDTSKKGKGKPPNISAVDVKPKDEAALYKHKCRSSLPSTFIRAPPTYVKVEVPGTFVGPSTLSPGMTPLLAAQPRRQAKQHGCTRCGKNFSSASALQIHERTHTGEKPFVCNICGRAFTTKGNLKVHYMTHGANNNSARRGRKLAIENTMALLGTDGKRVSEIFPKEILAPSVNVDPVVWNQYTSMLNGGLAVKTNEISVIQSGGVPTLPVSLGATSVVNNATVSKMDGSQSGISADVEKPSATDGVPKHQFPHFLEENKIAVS
Strand	E-score
CACCTAGA	-0.118
AGGCGATA	0.077
AAAAACGA	0.238
CCCTTATA	0.226
ACATGGAG	-0.0805
AACCACCG	-0.144
GGAACAGA	0.0169
ACGTATGG	0.142
CTAACGCC	-0.11
CCGGGTAA	-0.18
TAGTTTAA	0.291
CACCGCAG	-0.1
ACCTGGTC	-0.24
CGCTTGCA	-0.0396
CTGGCAAA	-0.0413
GGCCGCGA	-0.355
AGTGCAAC	-0.0728
CGTAAGAA	0.0845
CTTGTGTA	0.146
AGCGCGTG	-0.179
CACTTACG	0.0229

Some of these lines once more (set 4):
Strand	E-score
CTGGCAAA	-0.0413
CCGGGTAA	-0.18
CACCGCAG	-0.1
AACCACCG	-0.144
